Literature values as cited in several papers.
Protocols differ between the studies behind these lines. ± gives the spread as reported. No end group written: not given here.
ACE: Angiotensin-converting enzyme (ACE, Homo sapiens, UniProt P12821)
Sequence of UniProt P12821 (whole entry, looked up): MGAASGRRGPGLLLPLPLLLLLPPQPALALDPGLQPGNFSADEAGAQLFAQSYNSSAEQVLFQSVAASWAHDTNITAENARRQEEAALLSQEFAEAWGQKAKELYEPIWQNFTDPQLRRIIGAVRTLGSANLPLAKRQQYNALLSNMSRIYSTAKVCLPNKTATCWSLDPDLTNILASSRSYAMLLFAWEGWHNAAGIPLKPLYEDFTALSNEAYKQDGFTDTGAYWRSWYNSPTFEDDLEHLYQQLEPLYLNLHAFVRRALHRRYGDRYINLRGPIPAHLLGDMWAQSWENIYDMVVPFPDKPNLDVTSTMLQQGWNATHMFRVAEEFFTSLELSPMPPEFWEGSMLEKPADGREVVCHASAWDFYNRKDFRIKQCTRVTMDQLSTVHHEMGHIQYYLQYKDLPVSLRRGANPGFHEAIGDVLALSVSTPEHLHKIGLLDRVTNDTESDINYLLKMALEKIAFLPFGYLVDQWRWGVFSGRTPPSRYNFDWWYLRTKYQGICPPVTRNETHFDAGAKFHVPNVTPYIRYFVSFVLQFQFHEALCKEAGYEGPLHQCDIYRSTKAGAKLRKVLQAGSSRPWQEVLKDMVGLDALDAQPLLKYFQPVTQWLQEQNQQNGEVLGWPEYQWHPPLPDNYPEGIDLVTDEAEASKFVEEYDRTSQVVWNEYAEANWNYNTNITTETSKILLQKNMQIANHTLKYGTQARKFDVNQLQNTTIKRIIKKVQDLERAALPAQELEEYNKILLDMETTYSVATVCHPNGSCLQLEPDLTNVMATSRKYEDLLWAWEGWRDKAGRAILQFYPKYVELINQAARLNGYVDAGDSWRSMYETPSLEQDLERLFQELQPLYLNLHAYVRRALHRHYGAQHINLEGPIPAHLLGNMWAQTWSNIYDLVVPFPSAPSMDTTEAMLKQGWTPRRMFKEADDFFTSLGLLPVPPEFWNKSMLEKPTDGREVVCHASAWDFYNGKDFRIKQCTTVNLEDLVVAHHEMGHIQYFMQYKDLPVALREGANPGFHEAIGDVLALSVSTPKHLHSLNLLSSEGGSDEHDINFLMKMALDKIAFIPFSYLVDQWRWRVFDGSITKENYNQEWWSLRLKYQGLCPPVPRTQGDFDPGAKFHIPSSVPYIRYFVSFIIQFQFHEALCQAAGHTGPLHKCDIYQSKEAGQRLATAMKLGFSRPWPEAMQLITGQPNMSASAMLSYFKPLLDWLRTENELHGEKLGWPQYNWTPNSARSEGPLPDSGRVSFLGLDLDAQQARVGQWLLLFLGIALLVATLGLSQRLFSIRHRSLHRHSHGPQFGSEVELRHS
PTGS2: Prostaglandin G/H synthase 2 (PTGS2, Homo sapiens, UniProt P35354)
Sequence of UniProt P35354 (whole entry, looked up): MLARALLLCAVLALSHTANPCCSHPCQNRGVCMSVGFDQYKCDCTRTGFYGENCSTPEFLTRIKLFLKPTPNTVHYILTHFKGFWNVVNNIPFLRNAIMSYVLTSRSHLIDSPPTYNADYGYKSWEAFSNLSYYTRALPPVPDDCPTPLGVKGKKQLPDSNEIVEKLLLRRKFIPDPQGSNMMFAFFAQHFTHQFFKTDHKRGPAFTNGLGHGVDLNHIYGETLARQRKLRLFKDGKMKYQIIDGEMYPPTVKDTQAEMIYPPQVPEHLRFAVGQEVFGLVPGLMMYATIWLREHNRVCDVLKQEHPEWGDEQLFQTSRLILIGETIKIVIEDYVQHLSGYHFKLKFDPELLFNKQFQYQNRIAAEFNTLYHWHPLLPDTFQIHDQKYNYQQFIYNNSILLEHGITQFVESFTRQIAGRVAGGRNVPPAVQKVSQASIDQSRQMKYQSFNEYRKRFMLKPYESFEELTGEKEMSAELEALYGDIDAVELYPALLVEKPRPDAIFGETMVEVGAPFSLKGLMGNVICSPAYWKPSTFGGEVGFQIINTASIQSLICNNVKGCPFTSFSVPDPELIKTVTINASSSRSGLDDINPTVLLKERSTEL
B1: CCL1; sequence looked up; chain KSMQVPFSRCCFSFAEQEIPLRAILCYRNTSSICSNEGLIFKLKRGKEACALDTVGWVQRHRKMLRHCPSKRK
Sequence of UniProt P04692 (whole entry, looked up): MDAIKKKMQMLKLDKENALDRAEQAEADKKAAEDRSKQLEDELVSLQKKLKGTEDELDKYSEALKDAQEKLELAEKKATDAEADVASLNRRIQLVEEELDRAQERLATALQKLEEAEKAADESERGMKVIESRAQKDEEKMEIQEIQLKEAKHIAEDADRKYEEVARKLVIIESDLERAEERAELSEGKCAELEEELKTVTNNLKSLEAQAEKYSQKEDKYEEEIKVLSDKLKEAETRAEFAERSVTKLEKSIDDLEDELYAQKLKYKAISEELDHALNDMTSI
Sequence of UniProt Q9ZMY2 (whole entry, looked up): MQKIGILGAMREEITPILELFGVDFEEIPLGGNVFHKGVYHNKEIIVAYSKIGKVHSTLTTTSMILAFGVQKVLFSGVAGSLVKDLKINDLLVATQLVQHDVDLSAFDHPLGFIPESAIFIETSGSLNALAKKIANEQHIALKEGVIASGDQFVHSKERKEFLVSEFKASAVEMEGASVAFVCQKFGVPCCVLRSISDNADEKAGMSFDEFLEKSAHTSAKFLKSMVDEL

| Substance | target or system | test | system | setting | scale | endpoint | result |
| --- | --- | --- | --- | --- | --- | --- | --- |
| VRPGVKESLV | CHAPSYN-110 PDZ domains 2/3 | binding, fluorescence polarization | peptide |  |  | Kd | 1.53 µM |
| AMTSRKRKFVWYVLSSSLKWLIKKAKKIGVQVCGFE | Staphylococcus aureus |  | peptide, ATCC 6538 |  |  | MIC | 3 µM |
| indirubin-3'-monoxime | HUVEC | cell migration |  |  |  | IC50 | > 30 µM |
| STFGYRRGLSKYESIDEDELLASLSAEELKELERELEDIE (Lmod2(2-41); sequence looked up) | Tropomyosin alpha-1 chain (Tpm1, Rattus norvegicus, UniProt P04692) | CD thermal unfolding | peptide |  | complex | melting temperature | 36.4 ± 0.1 °C |
| B1 (CCL1) | CCR8 Y114A mutant | IP accumulation, agonist |  |  |  | EC50 | 0.131 µM |
| FDGPY | ACE | inhibitor | peptide |  |  | IC50 | 1570 µM |
| oxaprozin | PTGS2 | inhibitor |  |  |  | IC50 | 36 µM |
| RQIKIWFQNKKWKWKK | Staphylococcus aureus |  | peptide, methicillin-resistant |  |  | MIC | 1000 µg/mL |
| ELDEFPETSV | CHAPSYN-110 PDZ domain 3 | binding, fluorescence polarization | peptide |  |  | Kd | 4.95 µM |
| oxaprozin potassium | PTGS2 | inhibitor |  |  |  | IC50 | 36 µM |
| pegcetacoplan | Complement C3 (Homo sapiens, UniProt P01024) |  | healthy human volunteers | 270 mg/day, 28 days |  | serum level | increased |
| Et-DADMe-ImmA | Aminodeoxyfutalosine nucleosidase (Helicobacter pylori, UniProt Q9ZMY2) | enzyme activity, inhibitor |  | initial weaker complex |  | Ki | 0.00017 ± 6e-05 µM |
| CHRSYYTWNLNC | CD274 (Homo sapiens, UniProt Q9NZQ7) | binding | peptide |  |  | IC50 | 0.18 µM |
| ITAPHW | ACE |  | peptide |  |  | IC50 | 51.7 µM |
| Ivermectin | GABA-A receptor |  |  | literature value |  | EC50 | 3 µM |
| AHFSSLESEV | CHAPSYN-110 PDZ domain 3 | binding, fluorescence polarization | peptide |  |  | Kd | 14.3 µM |
| SLPNPHPSPR | ACE |  | peptide |  |  | IC50 | 146 µM |
| bromfenac sodium | PTGS2 | inhibitor |  |  |  | IC50 | 0.00745 µM |
| CCFSWRCRC (disulfide (positions not given here)) (disulfide) | bovine alpha-chymotrypsin | inhibitor |  | together with: Suc-Ala-Ala-Pro-Phe-pNA |  | Ki | 0.9 µM |
| SEGPK | ACE | inhibitor | peptide |  |  | IC50 | 1220 µM |
| EKLSSIESDV | CHAPSYN-110 PDZ domains 2/3 | binding, fluorescence polarization | peptide |  |  | Kd | 4.72 µM |
| tolmetin | PTGS2 | inhibitor |  |  |  | IC50 | 0.82 µM |

For quick reference, copied from above:
| Substance | target or system | test | system | setting | scale | endpoint | result |
| --- | --- | --- | --- | --- | --- | --- | --- |
| EKLSSIESDV | CHAPSYN-110 PDZ domains 2/3 | binding, fluorescence polarization | peptide |  |  | Kd | 4.72 µM |
| VRPGVKESLV | CHAPSYN-110 PDZ domains 2/3 | binding, fluorescence polarization | peptide |  |  | Kd | 1.53 µM |
